Published values pooled from the literature.
± gives the spread as reported.

`CC[C@H](C)CCCCC(=O)N[C@@H](CCN)C(=O)N[C@H](C(=O)N[C@@H](CCN)C(=O)N[C@H]1CCNC(=O)[C@H]([C@@H](C)O)NC(=O)[C@H](CCN)NC(=O)[C@H](CCN)NC(=O)[C@H](CC(C)C)NC(=O)[C@@H](Cc2ccccc2)NC(=O)[C@H](CCN)NC1=O)[C@@H](C)O` has a Tmax of 1 h (long-term haemodialysis patients, plasma; IV infusion, 0.75 mg/kg, 1 h infusion, median).
`Cc1nn(C)cc1S(=O)(=O)NC(=O)c1ccc(-n2ccc(OCC(C)(C)C(F)(F)F)n2)nc1N1C[C@@H](C)CC1(C)C` has a Tmax of 2 h (human, plasma; oral, standard ETI dose).
`C=CC(=O)NC1CCN(c2ncc3ncnc(Nc4ccc(Oc5ccc6c(c5)ncn6C)c(C)c4)c3n2)CC1` gave a Tmax of 1.5 h (healthy men; oral, 60 mg single dose, together with: carbamazepine).
For `N[C@@H](Cc1ccc(O)c(O)c1)C(=O)O`, the Tmax was 0.5 h (Parkinson's disease patients, plasma; oral, high carbidopa AUC subgroup (11.5 µmol·h/L), median).
The Tmax of `O=C(c1ccccc1)c1ccc2n1CCC2C(=O)O` (centres unmarked) is reported as 1 h (New Zealand White rabbit, male, plasma; oral, 10 mg/kg drug equivalent).
With `CC(=O)Nc1ccc(C[C@H](NC(=O)[C@H](CO)NC(=O)[C@@H](Cc2cccnc2)NC(=O)[C@@H](Cc2ccc(Cl)cc2)NC(=O)[C@@H](Cc2ccc3ccccc3c2)NC(C)=O)C(=O)N[C@H](Cc2ccc(NC(C)=O)cc2)C(=O)N[C@@H](CC(C)C)C(=O)N[C@@H](CCCCNC(C)C)C(=O)N2CCC[C@H]2C(=O)N[C@H](C)C(N)=O)cc1` the Tmax was 1.6 ± 0.7 h (healthy men, fasted, serum; oral, 10 mg single dose).
`CO[C@H]1CC[C@H](N2C(=O)CNc3ncc(-c4ccc(C(C)(C)O)nc4)nc32)CC1` has a Tmax of 1.63 h (patients, plasma; oral, 45 mg, day 15, median).
For `CCc1nc(C(N)=O)c(Nc2ccc(N3CCC(N4CCN(C)CC4)CC3)c(OC)c2)nc1NC1CCOCC1`, the Tmax was 6.08 h (Japanese patients, plasma; oral, 80 mg, cycle 1 day 28, multiple doses, median).
For `Oc1ccc([C@@H](O)c2cc(-c3ncnc4cc(N5CCOCC5)ccc34)c(F)cc2Cl)nn1`, the Tmax was 4 h (median; healthy volunteers, plasma; oral, 100 mg, high-fat fed tablet).
`N#Cc1cccc(-c2ccc3ncc(-c4cc(F)cc(F)c4)c(N4CCC(N)CC4)c3c2)c1O` gave a Tmax of 1 h (healthy male, plasma total radioactivity; oral, 20 mg, median).
The Tmax of `O=C(O)c1cc(O)c(O)c(O)c1` is reported as 1 ± 0.92 h (LC-MS/MS; male Ross broilers, serum; oral, 0.49 mg/kg BW).
For `CC(F)(F)c1nc2nc(CO)cc(Nc3ccc(S(F)(F)(F)(F)F)cc3)n2n1`, the Tmax was 112 h (LC-MS/MS, non-compartmental; malaria patients; 250 mg of parent drug, median).
With `CCCCC[C@H](O)CC[C@@H]1[C@H]2Cc3cccc(OCC(=O)O)c3C[C@H]2C[C@H]1O` the Tmax was 0.16 h (LC-MS/MS; Japanese PAH patients on background ERA, plasma; inhaled, 54 µg, mean).
The Tmax of `CNC(=O)c1ccc(-c2cnc3ncc(Cc4ccc5ncccc5c4)n3n2)cc1F` is reported as 1.07 h (Japanese patients, plasma; oral, 400 mg twice daily, cycle 1 day 15, fasting, steady state).
`CC(=O)c1c(C)c2cnc(Nc3ccc(N4CCNCC4)cn3)nc2n(C2CCCC2)c1=O` gave a Tmax of 5.8 h (cancer patients, plasma; oral, 75 mg, cycle 1 day 15, together with: neratinib 200 mg).
The Tmax of `OC[C@H]1O[C@@H](c2cc(Cc3ccc(C4CC4)cc3)c(Cl)c3c2CCO3)[C@H](O)[C@@H](O)[C@@H]1O` is reported as 1.25 h (healthy Korean adults, fasted, plasma; oral, 0.3 mg single dose, fixed-dose combination, median, together with: co-administered drug 50 mg).
`C[C@H]1[C@H]2N(C(=O)CN(C)N2C(=O)NCc2ccccc2)[C@@H](Cc2ccc(OP(=O)(O)O)cc2)C(=O)N1Cc1cccc2cccnc12` gave a Tmax of 1 h (patients, plasma; intravenous infusion, 280 mg/m2 over 4 h, mean).
For `CN[C@H](CC(C)C)C(=O)N[C@H]1C(=O)N[C@@H](CC(N)=O)C(=O)N[C@H]2C(=O)N[C@H]3C(=O)N[C@H](C(=O)N[C@H](C(=O)O)c4cc(O)cc(O)c4-c4cc3ccc4O)[C@H](O)c3ccc(c(Cl)c3)Oc3cc2cc(c3O[C@@H]2O[C@H](CO)[C@@H](O)[C@H](O)[C@H]2O[C@H]2C[C@](C)(N)[C@H](O)[C@H](C)O2)Oc2ccc(cc2Cl)[C@H]1O`, the Tmax was 0.5 h (guinea pig, serum; intraperitoneal, 15 mg/kg, single dose).
For `C[C@H]1CN(C(=O)CC#N)[C@]12CCN(c1ncnc3[nH]ccc13)C2`, the Tmax was 1 h (healthy Japanese males; oral, 100 mg single dose, median).
`CN(CCC(=O)O)C(=O)c1ccc2c(c1)CC[C@@H]1[C@@H]2CC[C@]2(C)C(c3cncc(F)c3)=CC[C@@H]12` has a Tmax of 3 h (postmenopausal women, plasma; 3 mg single dose, median).
The Tmax of `O=C(c1cccnc1-c1ccncc1)N1CCC(O)(Cc2ccccc2)CC1` is reported as 0.75 h (healthy Japanese adults, plasma; oral, 200 mg single dose).
The Tmax of `CCCCCCCCCCCCCCCC(=O)N[C@@H](CCC(=O)NCCCC[C@@H]1NC(=O)[C@H]([C@@H](C)CC)NC(=O)[C@@H](NC(=O)[C@@H]2CCCN2C(=O)[C@H](Cc2ccccc2)NC(=O)[C@H](Cc2c[nH]cn2)NC(=O)[C@@H](NC(=O)[C@H](CC(=O)O)NC(=O)CC(C)C)[C@@H](C)O)CSSC[C@@H](C(=O)N[C@@H](CCCCN)C(N)=O)NC(=O)CNC(=O)[C@H](CCCCN)NC(=O)[C@H](CO)NC(=O)[C@H](CCCNC(=N)N)NC(=O)[C@@H]2CCCN2C(=O)[C@H](CCC(=O)O)NC(=O)[C@H](Cc2ccccc2)NC1=O)C(=O)O` is reported as 24 h (healthy volunteers, plasma; subcutaneous, 10 mg single, lyophilised formulation, median).
`CCc1nc2c(C)cc(N3CCN(CC(=O)N4CC(O)C4)CC3)cn2c1N(C)c1nc(-c2ccc(F)cc2)c(C#N)s1` gave a Tmax of 1 h (healthy volunteers, fed, plasma; oral, 300 mg single dose, day 1, suspension).
The Tmax of `COc1nnc2ccc(N3CCC(c4ccc(OCCN5CCN(C)C(=O)[C@H]5C)cc4)CC3)nn12` is reported as 2.12 h (patients, plasma; oral, 15 mg twice daily, multiple dose, monotherapy, median).
For `CCNC(=O)[C@@H]1CCCN1C(=O)[C@H](CCCNC(=N)N)NC(=O)[C@H](CC(C)C)NC(=O)[C@@H](CC(C)C)NC(=O)[C@H](Cc1ccc(O)cc1)NC(=O)[C@H](CO)NC(=O)[C@H](Cc1c[nH]c2ccccc12)NC(=O)[C@H](Cc1c[nH]cn1)NC(=O)[C@@H]1CCC(=O)N1`, the Tmax was 2.77 ± 0.46 h (healthy female volunteers; oral, 4 mg single dose, fasted overnight).
`CCCCOCCOc1ccc(-c2ccc3c(c2)/C=C(/C(=O)Nc2ccc([S@@+]([O-])Cc4cncn4CCC)cc2)CCCN3CC(C)C)cc1` has a Tmax of 5.9 h (mild hepatic impairment patients, plasma; oral, 150 mg, day 1, single dose, geometric mean).
For `C[C@@H](N)C1CCN(S(=O)(=O)c2cccc3cnccc23)CC1`, the Tmax was no more than 1 h (healthy volunteers, plasma; oral, across dose levels).
`C=C(F)C(=O)N1CCN(c2nc(OC[C@@H]3CCCN3C)nc3c2CCN(c2cccc4cccc(Cl)c24)C3)C[C@@H]1CC#N` has a Tmax of 6 h (healthy volunteers, plasma; oral, 400 mg twice daily).
With `CCCCC1=NC2(CCCC2)C(=O)N1Cc1ccc(-c2ccccc2S(=O)(=O)Nc2noc(C)c2C)c(COCC)c1` the Tmax was 2 h (healthy adult volunteers, plasma; oral, 400 mg, 14 days repeated dosing, fasted, crushed tablet).
`C[C@@](Cc1ccc(O)c(O)c1)(NN)C(=O)O` has a Tmax of 2 h (male Parkinson's disease patients, plasma; oral, median).
`CS(=O)(=O)c1ccc([C@@H](O)[C@@H](CF)NC(=O)C(Cl)Cl)cc1` has a Tmax of 0.8 ± 0.11 h (Arbor Acres chickens, plasma; oral, 20 mg/kg, together with: quercetin 60 mg/kg pretreatment).
The Tmax of `COc1ccc([C@@H](O)c2cc(-c3ncnc4cc(N5CCOCC5)ccc34)c(F)cc2Cl)nn1` is reported as 1 h (median; healthy volunteers, plasma; oral, 100 mg, fasted tablet).

For quick reference, copied from above:
The Tmax of `OC[C@H]1O[C@@H](c2cc(Cc3ccc(C4CC4)cc3)c(Cl)c3c2CCO3)[C@H](O)[C@@H](O)[C@@H]1O` is reported as 1.25 h (healthy Korean adults, fasted, plasma; oral, 0.3 mg single dose, fixed-dose combination, median, together with: co-administered drug 50 mg).
`C[C@H]1[C@H]2N(C(=O)CN(C)N2C(=O)NCc2ccccc2)[C@@H](Cc2ccc(OP(=O)(O)O)cc2)C(=O)N1Cc1cccc2cccnc12` gave a Tmax of 1 h (patients, plasma; intravenous infusion, 280 mg/m2 over 4 h, mean).
For `CN[C@H](CC(C)C)C(=O)N[C@H]1C(=O)N[C@@H](CC(N)=O)C(=O)N[C@H]2C(=O)N[C@H]3C(=O)N[C@H](C(=O)N[C@H](C(=O)O)c4cc(O)cc(O)c4-c4cc3ccc4O)[C@H](O)c3ccc(c(Cl)c3)Oc3cc2cc(c3O[C@@H]2O[C@H](CO)[C@@H](O)[C@H](O)[C@H]2O[C@H]2C[C@](C)(N)[C@H](O)[C@H](C)O2)Oc2ccc(cc2Cl)[C@H]1O`, the Tmax was 0.5 h (guinea pig, serum; intraperitoneal, 15 mg/kg, single dose).
For `C[C@H]1CN(C(=O)CC#N)[C@]12CCN(c1ncnc3[nH]ccc13)C2`, the Tmax was 1 h (healthy Japanese males; oral, 100 mg single dose, median).
